Experimental data of several laboratories.
Each line is one published result; not all experiments were run side by side.
Target: Maternal embryonic leucine zipper kinase (MELK, Homo sapiens, UniProt Q14680)

Cc1cccc(O[C@H]2CCC[C@@H](C(C)CNCc3ccncc3)C2)c1 (relative stereo) — inhibition (enzyme activity, inhibitor; 10 µM): -4%
C=CC(=O)Nc1cccc(-c2cnc3[nH]cc(C(=O)NC(C)(C)C)c3n2)c1 — inhibition (enzyme activity, inhibitor; 0.1 µM): 11%
CNC1C[S+]2CC[S+]3CC[S+](C1)[Ru-4]321([N]=C=S)[n]2c3ccc(OC)cc3c3c4c(c5cc(F)c[n+]1c5c32)C(=O)NC4=O (stereo not shown) — remaining binding (KinomeScan; 0.1 µM; reference: untreated): 29%
Nc1ncc(-c2cc(-c3cnn(CC(F)(F)F)c3)ncc2F)nc1C(=O)NC1CNCC(F)C1 (stereo not shown) — remaining activity (enzyme activity; 1 µM; reference: DMSO control): 81%
COc1c(OCCCN2CCOCC2)ccc2c1N=C(NC(=O)c1cnc(N)nc1)N1CCN=C21 — remaining activity (kinase activity, inhibitor; 1 µM; reference: untreated control): 104%
C=CC(=O)N1CCCC(n2c(=O)c3ncccc3n(Cc3ccc(Oc4ccccc4)cc3)c2=O)C1 (stereo not shown) — remaining binding (cell-free assay, competition with immobilised ligand; 1 µM): 97%
O=C(Cc1ccc(OCc2ccccc2)cc1)NC1(C(=O)O)CCN(C(=O)c2ccc(-c3cccc(Cl)c3)cc2)CC1 — activity vs control (enzyme activity, inhibitor; 10 µM): 102%
Cc1cccc(-c2ccc3nc(NC(=O)C4CCCCC4)nn3c2)c1 — remaining activity (enzyme activity, Dundee kinase panel; 10 µM): 71%
COc1c(Cl)cccc1Nc1c(-c2ccncc2C#C[C@@]2(C)CCCN2C(=O)/C=C/CN(C)C)[nH]c2c1C(=O)NCC2 — remaining binding (binding, competition with immobilised ligand; 3 µM): 23%
CN1CC[C@@H](COc2cnc(C#N)cc2-c2ccn3nc(NC(=O)C4CC4)cc3c2)C1 — inhibition (enzyme activity, inhibitor; 1 µM): 3%
COc1cc(Nc2nc(C)cc(-c3cnn4nc(OC)ccc34)n2)cc(C(F)(F)F)c1 — remaining activity (inhibitor; 1 µM; reference: control): 97%
Nc1ncc2c(n1)-c1c([nH]c3ccc(C4=CCOCC4)cc13)CCC2 — remaining binding (binding, competition with immobilised ligand; 1 µM): 100%
C=CC(=O)Nc1cc(-c2nn(C3CCN(CCNC(=O)[C@H](C)CCC45CC6CC(CC(C6)C4)C5)CC3)c3ncnc(N)c23)ccc1Oc1ccccc1 — inhibition (inhibitor, KiNativ profiling; biochemical; 2 µM): -14.2%
NC(=O)[C@@H](O)C[C@H]1CCc2sc3ncnc(O[C@H]4CC[C@H](N5CCOCC5)CC4)c3c21 — inhibition (enzyme activity, inhibitor; 10 µM): 9%
C[C@H]1CN(C(=O)c2cn(-c3ccnc(N)n3)c3cc(C#CC4(O)CCCCC4)ccc23)CCN1 — inhibition (enzyme activity, inhibitor, FRET; 1 µM): 3%
Cc1ccc(C)c(-c2ccc3nc(NC(=O)C4CCCCC4)nn3c2)c1 — remaining activity (enzyme activity, Dundee kinase panel; 10 µM): 62%
CS(=O)(=O)Nc1cccc(-c2csc3cnc(Nc4ccc(N5CCN(CCCCCOc6cccc7c6C(=O)N(C6CCC(=O)NC6=O)C7=O)CC5)cc4)nc23)c1 (stereo not shown) — inhibition (probe labelling, inhibitor, KiNativ chemoproteomics; MOLT-4; 1 µM): 19.5%
CNC(=O)C[C@H](Cc1ccc(C#N)cc1)NC(=O)c1cc(-c2ccc(CN[C@H](C)c3ccc(C)cc3)o2)ccc1Cl — activity vs control (enzyme activity, inhibitor; 1 µM): 107%
Nc1nc(Nc2ccccc2)sc1C(=O)c1ccccc1 — remaining activity (enzyme activity, inhibitor; 10 µM): 34%
